Experimental data from different studies.
Several values in a cell are separate wells, animals, samples, runs or records. ± marks the error that the study gave.

The ΔTm of `C[n+]1ccc(/C=N/NC(=O)C(=O)N/N=C/c2cc[n+](C)cc2)cc1` is reported as 2.6 ± 2.5 °C (22CTA telomeric G4-DNA antiparallel; FRET melting; 1 µM, K10 buffer, DNA 0.2 µM).
`O=C(NCCO)c1ccc(C2CCCCC2)cc1` gave a hepatic clearance of 75 mL/min/kg (liver microsome stability; mouse liver microsomes; 1 µM).
With `O=c1c(Oc2ccccc2)c(C(F)(F)F)oc2c(O)c(O)ccc12` the di-ubiquitin formed was 47% (ROC1-CUL1 E3 subcomplex; di-ubiquitin synthesis; 30 µM; reference: input).
`Cn1ccc2cc(-n3c(=O)[nH]c4sc5c(c4c3=O)CCCC5)ccc21` gave an inhibition of 7% (rat P2X receptor; radioligand binding; 10 µM).
For `COc1c(Cl)cccc1Nc1c(-c2ccncc2C#C[C@@]2(C)CCCN2C(=O)/C=C/CN(C)C)[nH]c2c1C(=O)NCC2`, “log2 fold change” read 1.47 (DUSP4 human; cysteine engagement, chemoproteomic profiling, item: DUSP4 Cys12 peptide; NCI-H2073; 10 µM, 2 h; reference: DMSO).
The ΔTm of `Cc1cn(CC(=O)N(CCNC(=O)CN(CCNC(=O)CN(CCNC(=O)CN(CCNC(=O)CN(CCNC(=O)CN(CCNC(=O)CN(CCNC(=O)CN(CCN)C(=O)Cn2cnc3c(=O)[nH]c(N)nc32)C(=O)Cn2cnc3c(N)ncnc32)C(=O)Cn2cc(C)c(=O)[nH]c2=O)C(=O)Cn2cnc3c(=O)[nH]c(N)nc32)C(=O)Cn2cc(C)c(=O)[nH]c2=O)C(=O)Cn2cnc3c(=O)[nH]c(N)nc32)C(=O)Cn2cnc3c(N)ncnc32)CC(=O)NCCN(CC(=O)NCCOCCOCC(N)=O)C(=O)Cn2cnc3c(N)ncnc32)c(=O)[nH]c1=O` is reported as -14.3 °C (mismatched RNA TU; duplex formation, UV melting; reference: complementary RNA).
`O=C(NC1CCOCC1)c1ccc([C@H]2[C@@H](F)[C@@H](F)C[C@@H](F)[C@H]2F)cc1` gave a hepatic clearance of 4.9 mL/min/kg (liver microsome stability; cynomolgus liver microsomes; 1 µM).
With `c1ccc(CSc2nc3ccccc3cc2CNCCC2CCN(C3CCCC3)CC2)cc1` the inhibition was 4% (electron transport chain; proton pumping, ACMA quenching; Pseudomonas aeruginosa inverted membrane vesicles; 2 µg/mL, together with: NADH).
For `O=c1c(-c2cnn(-c3ccc(Cl)cc3)c2)c(C(F)(F)F)oc2c(O)c(O)ccc12`, the Cdc34b-ubiquitin remaining was 4.5% (ROC1-CUL1 E3 subcomplex; Cdc34-ubiquitin discharge; 75 µM; reference: input).
With `C[n+]1cc(/C=N/NC(=O)C(=O)N/N=C/c2cc3ccccc3[n+](C)c2)cc2ccccc21` the ΔTm was 3.5 ± 1.8 °C (22CTA telomeric G4-DNA antiparallel; FRET melting; 1 µM, K10 buffer, DNA 0.2 µM).
`C=CC(=O)N1[C@H](c2ccc3c(c2)OCO3)c2[nH]c3ccccc3c2C[C@@H]1C(=O)NC1CC1` gave an inhibition of 82% (PTGES2 Cys113 human; cysteine IA-DTB labelling, covalent inhibitor, MS-ABPP; 22Rv1; 20 µM, 3 h).
For `C=CC(=O)Nc1cccc(Cn2ncc3cnc(Nc4cnn(CCOC)c4)nc32)c1`, “percent of control” read 80% (MKK7 human; binding, KINOMEscan; 100 nM; lower = stronger binding).
For `C[n+]1cc(/C=N/NC(=O)c2cncc(C(=O)N/N=C/c3cc4ccccc4[n+](C)c3)n2)cc2ccccc21`, the ΔTm was 8.2 ± 0.2 °C (22CTA telomeric G4-DNA antiparallel; FRET melting; 1 µM, K10 buffer, DNA 0.2 µM, together with: ds26 10 µM).
With `CC(C)Oc1cc(Cl)ccc1CNc1cc(-c2ccccc2)nc2ncnn12` the cAMP luminescence was 29800 a.u. and 23600 a.u. and 23000 a.u. (endogenous β-adrenergic receptors; cAMP level, cAMP GloSensor; mock-transfected cells; 100 nM, together with: isoprenaline 30 nM; higher = more cAMP).
The ΔTm of `CC[n+]1cccc2cc(/C=N/NC(=O)c3cccc(C(=O)N/N=C/c4ccc5c(ccc[n+]5CC)c4)n3)ccc21` is reported as 13.1 ± 0.5 °C (22CTA telomeric G4-DNA antiparallel; FRET melting; 1 µM, K10 buffer, DNA 0.2 µM, together with: ds26 10 µM).
Under “log2 fold change”, `c1ccc(-c2n[nH]cc2-c2ccnc3ccccc23)nc1` is recorded as 0.06 (KSP1 (Candida albicans); kinase binding, MIB/MS competition; Candida albicans lysate; 1 µM; reference: DMSO).
With `Nc1ncc(-c2cc(-c3cnn(CC(F)(F)F)c3)ncc2F)nc1C(=O)NC1CNCC(F)C1` (stereo not drawn) the remaining binding was 73% (CSNK1G1; KINOMEscan; 1 µM; reference: DMSO control).
With `C[n+]1ccc(/C=N/NC(=O)c2ccc3ccc(C(=O)N/N=C/c4cc[n+](C)cc4)nc3n2)cc1` the ΔTm was 4.9 ± 0.5 °C (22CTA telomeric G4-DNA antiparallel; FRET melting; 1 µM, K10 buffer, DNA 0.2 µM, together with: ds26 10 µM).
With `C=CC(=O)N1[C@H](c2ccc3c(c2)OCO3)c2[nH]c3ccccc3c2C[C@@H]1C(=O)N1CCN(C)CC1` the relative co-enrichment was 80% (human cyclin E1 N112C-3xFLAG:CDK2; co-IP with TMT proteomics, item: ELP5; concentration not given, Q8TE02; reference: wild type DMSO).
The ΔTm of `C[n+]1ccc(/C=N/NC(=O)c2cccc(C(=O)N/N=C/c3cc[n+](C)cc3)n2)cc1` is reported as 4.2 ± 1.3 °C (22CTA telomeric G4-DNA antiparallel; FRET melting; 1 µM, K10 buffer, DNA 0.2 µM).
`OC[C@H]1O[C@@H]2O[C@H]3[C@H](O)[C@@H](O)[C@@H](O[C@H]4[C@H](O)[C@@H](O)[C@@H](O[C@H]5[C@H](O)[C@@H](O)[C@@H](O[C@H]6[C@H](O)[C@@H](O)[C@@H](O[C@H]7[C@H](O)[C@@H](O)[C@@H](O[C@H]1[C@H](O)[C@H]2O)O[C@@H]7CO)O[C@@H]6CO)O[C@@H]5CO)O[C@@H]4CO)O[C@@H]3CO` gave a bioluminescence induction of 813 ± 92 RLU (LuxR; Escherichia coli sensor; 100 µM; higher = stronger induction).

Some of these lines once more:
With `CC(C)Oc1cc(Cl)ccc1CNc1cc(-c2ccccc2)nc2ncnn12` the cAMP luminescence was 29800 a.u. and 23600 a.u. and 23000 a.u. (endogenous β-adrenergic receptors; cAMP level, cAMP GloSensor; mock-transfected cells; 100 nM, together with: isoprenaline 30 nM; higher = more cAMP).
